Assay results pooled from the literature.
Each numbered part is a random draw from the data of one study; scales do not carry over between parts.

Set 1 — method: protein-binding microarray; form: double-stranded DNA, one strand shown; medium: in vitro; concentration: 2540 nM top; setting: 60-bp whole probe; with: salmon DNA 0.4 mg/ml; baseline: random background probes; direction: higher = stronger binding; constant ends, left off below: GCCTAGCAC … GTCTTGATTCGCTTGACGCTGCTG
Target: Interferon regulatory factor 3, full length, phosphomimetic (IRF3, Homo sapiens, UniProt Q14653, residues 1-427, S386D/S396D/S398D/S402D/T404D/S405D)
Construct (chain): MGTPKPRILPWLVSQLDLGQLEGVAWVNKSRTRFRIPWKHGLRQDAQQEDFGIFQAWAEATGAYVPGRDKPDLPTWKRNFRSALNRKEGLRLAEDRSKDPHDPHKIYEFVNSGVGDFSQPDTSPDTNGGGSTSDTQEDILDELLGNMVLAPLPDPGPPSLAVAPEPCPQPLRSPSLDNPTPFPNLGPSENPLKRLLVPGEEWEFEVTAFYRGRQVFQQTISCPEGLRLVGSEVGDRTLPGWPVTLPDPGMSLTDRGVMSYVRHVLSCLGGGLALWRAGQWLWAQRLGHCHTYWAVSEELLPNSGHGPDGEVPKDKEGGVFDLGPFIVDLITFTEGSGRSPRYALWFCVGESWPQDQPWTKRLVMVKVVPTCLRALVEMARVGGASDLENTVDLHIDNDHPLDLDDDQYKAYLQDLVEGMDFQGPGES
For `TTAGATTTCAGTTTCGAATAGTGCTAG`, “fitted relative affinity” read 5.24 z-score.
For `TTAGGTATCCGTCTCCTTTAGTGCTAG`, “fitted relative affinity” read 4.64 z-score.
`ACAAGTTTCTCCTTTCGGAAGTGCTAG` — result for “fitted relative affinity”: 3.23 z-score.
`GACGGTTCCGGACTGGGGACGTGCTAG`: “fitted relative affinity” 1.7 z-score.
`TTAAGTTTCGGACTGGGTTAGTGCTAG` — result for “fitted relative affinity”: 4.56 z-score.
Under “fitted relative affinity”, `TCAGGTCTCCCTTGAGGACTGTGCTAG` is recorded as 0.956 z-score.
`GCAAAAATGATTGGTTGAACGTGCTAG` — result for “fitted relative affinity”: -0.274 z-score.
`GACGGACTGGGGACTCGGGACGTGCTA` — result for “fitted relative affinity”: -0.895 z-score.
For `CTAGGACTGCTTATCCTTTAGTGCTAG`, “fitted relative affinity” read -0.104 z-score.

Set 2 — method: RNA Bind-n-Seq; form: RNA; medium: in vitro; concentration: 365 nM; baseline: no-protein control; direction: higher = stronger binding
Target: RNA binding protein fox-1 homolog 2, RRM domain, GST-SBP tag (RBFOX2, Homo sapiens, UniProt O43251-10, residues 100-194)
Setting: natural RNA segment, single round, ends assumed
Residues (chain): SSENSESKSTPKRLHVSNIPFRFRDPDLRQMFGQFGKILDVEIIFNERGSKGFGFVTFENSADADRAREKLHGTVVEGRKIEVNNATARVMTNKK
`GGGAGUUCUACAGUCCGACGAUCUUGUCAGAUCCAUGUAUUUUGGAGCAUAAAAUGUAUGCUGUUGUGACCAAUAAAUAUAAAAUAUGGUAAUUGGAAUUAACUCCACACCAUAGUAUGCAUUGUUAUACAUAUGGAAUUCUCGGGUGCCAA` — result for “RBNS enrichment (R)”: 0.66.
Under “RBNS enrichment (R)”, `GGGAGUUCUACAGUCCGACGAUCCCUUGGUUGUGAAAUGAUUUCAUUCCAGGGGAGGGGGCGGGGGAUCCCUUGGAGGCUCAGAGCAGCUGGCCCAAGCUGCAGCUCGUCUCCAGUGGAGGCUUGAAUGCCCUUGGAAUUCUCGGGUGCCAA` is recorded as 0.188.
Under “RBNS enrichment (R)”, `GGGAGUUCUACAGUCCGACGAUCCACCUCUGCCUGACCCCAGCCUUAAACAUAGCCCCUGGCCAGAGGCCUUGCUGGGUGGAGCCUCUGUGUGACUCCAUACUCCUCCCACCACAACACUCAUCUGUCAAACAUGGAAUUCUCGGGUGCCAA` is recorded as 0.69.
For `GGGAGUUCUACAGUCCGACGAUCCCAGUGAACACAGAGCAGCUAGAGGCUCCUCCUCUGCUGGCUUAGGGUCAGAAGUACCUCACAGUGGUUGUGGACAUGGAAGAGUUUUGUCAACACAACACUUUGUCCCCUGGAAUUCUCGGGUGCCAA`, “RBNS enrichment (R)” read 0.32.
`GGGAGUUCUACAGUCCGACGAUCAUCUUGGAGAACCACAAUGGAUUCUUCUGUCUCUAUACUUUCUGGGGUUCUUUCCCCUCCCUCUCAUGAGAGUAAAGUCCCCAGCAGAUUUGAGUGAGUCAGGGGAAACAUGGAAUUCUCGGGUGCCAA`: “RBNS enrichment (R)” 0.369.

Set 3 — method: RNA Bind-n-Seq; form: RNA; medium: in vitro; concentration: not given; baseline: input RNA pool; direction: higher = stronger binding
Target: RING finger protein unkempt homolog, zinc fingers 1-6, GST-SBP tag (UNK, Homo sapiens, UniProt Q9C0B0, residues 30-357)
Sequence of UniProt Q9C0B0 (30-357, looked up): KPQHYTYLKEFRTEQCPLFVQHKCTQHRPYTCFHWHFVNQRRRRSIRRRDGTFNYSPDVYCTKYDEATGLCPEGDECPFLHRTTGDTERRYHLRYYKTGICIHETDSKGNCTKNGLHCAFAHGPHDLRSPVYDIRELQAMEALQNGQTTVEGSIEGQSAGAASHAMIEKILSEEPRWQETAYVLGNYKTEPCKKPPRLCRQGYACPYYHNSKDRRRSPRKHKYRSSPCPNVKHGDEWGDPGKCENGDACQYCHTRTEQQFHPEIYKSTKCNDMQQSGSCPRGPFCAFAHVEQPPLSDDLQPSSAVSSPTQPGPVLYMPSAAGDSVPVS
Setting: RNA with constant flanks, human-mouse chimeric sites, ends assumed
With `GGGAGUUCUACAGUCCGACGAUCAAAGAGAAACUAAAGCAACUAAUAGAGGAAGAGGAUUGCAAAGAGAAUUUCAUAGAGGAAACUAGGAUUAUUAGCAAACAUGAGUUAUAUUCCAGAGCGUCUCAGAAACCCCAGCCAAACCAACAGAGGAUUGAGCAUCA` the bound/input enrichment was 5.22 ratio.
`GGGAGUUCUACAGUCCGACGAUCUCAUUUUUCUCUUUUCUUUCUUUCCUUAAAAGCCUAACUAAAGAUUAGGUUGUAAGAAAAACAGAAGCCAUGUUUCGAAGACCUGUAUUACAGGUAUUUCGUCAGUUUGUAAGACAUGAGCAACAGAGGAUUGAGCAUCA` gave a bound/input enrichment of 0.151 ratio.
With `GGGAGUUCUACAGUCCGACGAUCCACACCCUCUUCUGCGGGACCCUCAUCUUGCAGGCCCGGGCCUAUGUGGGACCGCACGUCCUGGCAGUGGUGACCCGCACAGGGUUCUGCACGGCAAAAGGGGGCCUGGUGAGCUCCAUCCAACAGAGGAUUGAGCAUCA` the bound/input enrichment was 0.104 ratio.
`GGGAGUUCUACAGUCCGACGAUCACCUCCCCCUCCCGCCUGCUUUUUGAACCGCUUUUUGGAAAGUUUUUGGCGUUUCUUUUCCUUCCCCAUACAAAGUGAUUACAGUUUCCCCCGCAAGGGUCUAUCGAUUCACCCUUCGGACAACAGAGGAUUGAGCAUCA` has a bound/input enrichment of 0.478 ratio.
For `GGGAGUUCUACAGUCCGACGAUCGAACCUGCUCUCUCUGAUGAAGAUGAGGAAGACAAUGAUGAUGUUGAACCCAUUUCUGAAUUUCGAUUUGUGCCCAGUGAUAAGUCAGCGUUGGAGGCGAUGUUCACAGCAAUGUGUGAGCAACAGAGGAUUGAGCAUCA`, the bound/input enrichment was 0.251 ratio.

Other studies, line by line
The fold induction of `PhoQ, residues 284 288 289 292 302 303 SCEHLI` is reported as 17.7 (PhoP, residues 12 14 15 18 19 QYCSL (Escherichia coli, UniProt P23836); Sort-seq, refers to: YFP reporter; E. coli; PhoQ-PhoP variant library, with: 10 µM Mg2+; baseline: high Mg2+ state, higher = stronger signaling).

Repeated from above (set 1):
For `CTAGGACTGCTTATCCTTTAGTGCTAG`, “fitted relative affinity” read -0.104 z-score.
`TTAAGTTTCGGACTGGGTTAGTGCTAG` — result for “fitted relative affinity”: 4.56 z-score.
`ACAAGTTTCTCCTTTCGGAAGTGCTAG` — result for “fitted relative affinity”: 3.23 z-score.
